# Experimental data of several laboratories.
# Protocols differ between the studies behind these lines.
# Cell line: SW-620
Compound,test,test system,setting,how to read,measurement,value
O=C1NC(c2ccccc2)(c2ccccc2)C(=O)N1Cc1cn(-c2c3ccccc3nc3ccccc23)nn1,NCI60 single-dose screen,,10 µM,,growth percentage,85.6%
O=P1(C2CCCCC2)CCCCC1,MTT,,72 h,baseline: IC50 HaCaT over IC50 SW-620,selectivity index,6.2
Nc1ncnc2c1ncn2C1CCCC1,,,"100 µM, 96 h",baseline: DMSO,decrease of IP5 level,~10 fold
O=C(Nc1nnc2n3c(=S)[nH][nH]c3nc(-c3ccc(Cl)cc3)c1-2)c1ccccc1,SRB,,"10 µM, NCI60 single-dose screen, colon cancer",baseline: untreated,cell growth,106%
CCCC(CCC)C(=O)OCc1cn(-c2c3ccccc3nc3ccccc23)nn1,NCI60 single-dose screen,,10 µM,,growth percentage,92.2%
O=C(/C=C/C=C/C=C/C1CCCCC1)NC1=C[C@@](O)(/C=C/C=C/C=C/C(=O)NC2=C(O)CCC2=O)[C@@H]2O[C@@H]2C1=O,"cell growth, CellTiter-Glo",,78 h,,GI50,20.9 µM
NNc1nc(-c2ccc(Cl)cc2)c2c(NC(=O)c3ccccc3)nnc-2[nH]1,SRB,,"10 µM, NCI60 single-dose screen, colon cancer",baseline: untreated,cell growth,107%
O=C1NC(=NCc2cccs2)S/C1=C\c1ccc2ncccc2c1,MTS,colon cancer,,,IC50,> 10 µM
Cc1cc(=O)[nH]n1-c1nc(-c2ccc(Cl)cc2)c2c(NC(=O)c3ccccc3)nnc-2[nH]1,SRB,,"10 µM, NCI60 single-dose screen, colon cancer",baseline: untreated,cell growth,97%
CCCN1CCN(c2ccc3nc(-c4ccc5nc(-c6cc(OC)ccc6OC)[nH]c5c4)[nH]c3c2)CC1,SRB,,"10 µM, 48 h",,growth percent,-70.2%
CCn1cc(-c2cc(Cn3ccoc3=N)cc3c2CCN([C@@H](C)c2cc(OC)ccn2)C3=O)c(C(F)(F)F)n1,"cell growth, inhibitor",,120 h,,EC50,0.0119 µM
O=c1ccn(Cc2cn(-c3c4ccccc4nc4ccccc34)nn2)c(=O)[nH]1,NCI60 single-dose screen,,10 µM,,growth percentage,93%
CCCCN1CCN(c2ccc3[nH]c(-c4ccc5[nH]c(-c6ccc(OCC)cc6)nc5c4)nc3c2)CC1,SRB,,"10 µM, 48 h",,growth percent,8.61%
Cn1cncc1C1=CN(c2ncnc3[nH]cnc23)CCS1,,,colon cancer,,GI50,6.5 µM
O=c1ccn(Cc2cn(-c3cc4ccccc4oc3=O)nn2)c(=O)[nH]1,NCI60 single-dose screen,,10 µM,,growth percentage,104%
CCCN1CCN(c2ccc3[nH]c(-c4ccc5[nH]c(-c6ccc(C(F)(F)F)cc6)nc5c4)nc3c2)CC1,SRB,,"10 µM, 48 h",,growth percent,-82.6%
O=P1(c2ccccc2)CCCCC1,MTT,,72 h,baseline: IC50 HaCaT over IC50 SW-620,selectivity index,1
CCCCN1CCN(c2ccc3[nH]c(-c4ccc5[nH]c(-c6ccc(C(F)(F)F)cc6)nc5c4)nc3c2)CC1,SRB,,"10 µM, 48 h",,growth percent,-76.9%
C#C[C@@]1(O)[C@@H](CO)O[C@@H](n2cc(F)c3c(N)ncnc32)[C@@H]1O,SRB,,NCI-60 screen,,TGI,2.9 µM
Cc1cc(C)n(-c2nc(-c3ccc(Cl)cc3)c3c(NC(=O)c4ccccc4)nnc-3[nH]2)n1,SRB,,"10 µM, NCI60 single-dose screen, colon cancer",baseline: untreated,cell growth,95.2%
Cn1cc(-c2ccc(-c3cncc(Cl)c3N3CCC4(CCNC4=O)CC3)cc2)cn1,"E2F1 Ser375 phosphorylation, ELISA",,1 µM,,inhibition,no inhibition
Cc1cc(C)n(C(=S)[S][Au][PH](CCCCCC[PH]([Au][S]C(=S)n2nc(C)cc2C)(c2ccccc2)c2ccccc2)(c2ccccc2)c2ccccc2)n1,"cell growth, NCI-60 screen",,colon cancer,,log10 TGI,> -4
COc1ccc(OC)c(-c2nc3ccc(-c4nc5ccc(N6CCN(C)CC6)cc5[nH]4)cc3[nH]2)c1,SRB,,"10 µM, 48 h",,growth percent,102%
O=C(Nc1nnc2n3c(Cc4ccccc4)n[nH]c3nc(-c3ccc(Cl)cc3)c1-2)c1ccccc1,SRB,,"10 µM, NCI60 single-dose screen, colon cancer",baseline: untreated,cell growth,101%
CCCCN1CCN(c2ccc3[nH]c(-c4ccc5[nH]c(-c6cc(OC)c(OC)c(OC)c6)nc5c4)nc3c2)CC1,SRB,,"10 µM, 48 h",,growth percent,60.3%
C#C[C@@]1(O)[C@@H](CO)O[C@@H](n2ccc3c(N)ncnc32)[C@@H]1O,SRB,,NCI-60 screen,,TGI,12.7 µM

# A few entries again:
Compound,test,test system,setting,how to read,measurement,value
Cn1cc(-c2ccc(-c3cncc(Cl)c3N3CCC4(CCNC4=O)CC3)cc2)cn1,"E2F1 Ser375 phosphorylation, ELISA",,1 µM,,inhibition,no inhibition
Cc1cc(C)n(C(=S)[S][Au][PH](CCCCCC[PH]([Au][S]C(=S)n2nc(C)cc2C)(c2ccccc2)c2ccccc2)(c2ccccc2)c2ccccc2)n1,"cell growth, NCI-60 screen",,colon cancer,,log10 TGI,> -4
COc1ccc(OC)c(-c2nc3ccc(-c4nc5ccc(N6CCN(C)CC6)cc5[nH]4)cc3[nH]2)c1,SRB,,"10 µM, 48 h",,growth percent,102%
